Assay results collected from several papers.
A part holds a random share of what one study measured.

Block 1
Target: RING finger protein unkempt homolog, zinc fingers 1-6, SBP tag (UNK, Homo sapiens, UniProt Q9C0B0, residues 30-357)
UniProt Q9C0B0, sequence (30-357, looked up): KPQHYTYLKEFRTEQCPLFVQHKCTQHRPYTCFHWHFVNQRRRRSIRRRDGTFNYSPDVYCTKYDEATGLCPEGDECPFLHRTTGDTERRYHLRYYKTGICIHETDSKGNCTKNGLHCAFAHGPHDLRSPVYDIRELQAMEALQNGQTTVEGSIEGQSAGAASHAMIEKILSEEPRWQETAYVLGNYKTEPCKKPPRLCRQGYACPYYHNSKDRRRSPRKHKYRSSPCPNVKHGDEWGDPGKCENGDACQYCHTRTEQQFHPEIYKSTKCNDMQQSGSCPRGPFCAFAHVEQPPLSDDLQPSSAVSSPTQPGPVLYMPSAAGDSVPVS
Method: RNA Bind-n-Seq
Molecule type: RNA
Matrix: in vitro
Concentration: 100 nM
Notes: RNA with constant flanks, vertebrate orthologous sites, ends assumed
Relative to: input RNA pool
Direction: higher = stronger binding
All sequences stand within: GGGAGUUCUACAGUCCGACGAUC … CAACAGAGGAUUGAGCAUCA
Oligonucleotide	bound/input enrichment
CCAAACUGAUGCUACUGUAUAACAAUUAAAAUGGGUUCUCCUAUUUCUUCAAUGAGGGGGAAAAUGCCUUACACGUCUGAUAAUGCCAUUCUGCUUUUGCUUUCUAUUUUCACAUAAGCA	0.458 ratio
UCUGUAGUUCUUUCAUUAUAAUUGAUUGAGUUAAGGAGGUGGUAAAUUUACCACUACAGGACUGCACACCCUGUUUUUGUUUUUAAUGCAUAUGUUUUUUAUUAGUUAUGGGUAUAAUUC	1.02 ratio
CUGUUGUUAAGCACUGUGUUCCAGACCAUGUCUGACUUUAGUGUAACCUAGGAGAUUUUAUAGUUUUAUUUUAAUGAACUCCUGCUUGACGCAGAGCAGUGGGGAGAGCAGUGUCCUCUG	2.37 ratio
UACAGGGAAAACUCACAAACUCAAAGGAAAACUAUUAAAGAGUUUCUAAUAGUUAAAAGCUAGGAAAGAUUAGGACAACUUUACAAAUGAGAAAUUAAAAAUAAAACACAGGAAAAAGGA	0.589 ratio
GCACAUGCCACUGUCGCCAAAAACGAGCUACCACUUUCCAAAUUUCAUUCAGAGCCAUUUUAGUGUUUUCCUAUUCCCUACCCCUCCCACUACUUUCAAUGAUGAAAUACCCUAAGUUCU	2.05 ratio
AUUCAACAAAAAAUGUUUCCACUGGGUUUUUUUCUGUAAGAAAAAAUGAACCCAAACAUAUAGAGCUUUUUCAUAGCACUAACCAAUGCCUUUUUAGAUGUAUUUUUGAUGUAUAUAUCU	0.755 ratio
CACAUCUGGUGAUAUUUGGCCUGGCCUUUCGGCUUAUGAUAACAGUCCCAGAUCACCCCAUAGUCCUUCACCUAUUGCUACACCACCUAGUCAGAGUUCAUCUUGCUCUGAUGCUCCUAU	0.667 ratio
GUGACUUUGGACGUCCGUUCAUCCUCCGUGUAGGGUUUACUUAGUGACGGGCCUUCCACUUUUGGUUUUUUCUUCUGGACAGGAGGCCUCUGCCGCAACCAUGUUACGCCAGAUUAUCGG	0.281 ratio
UAUUUUCUUAUUUUAGGUAUCAUUGCCCAGUGCCUAAGAUCUUUUAUGUUCAGCUCACUGUAGGAAAUAAUGAAUUUUUGGGGGAAGGAAAGACUCGACAAGCUGCUAGACACAAUGCUG	1.13 ratio
GUGACUUUGGACGUCCGCUCCUGAUCUGCGCAGAUCCUGCUUAGUCCCCGACCUUGCAGGUUAAUUUUCUUUGCCCAGGCUCGAGGCCUCUGUCGCUACCAUGCUUCGCCAGAUCAUCAC	0.286 ratio
CCUCUUAAUCCCAUAUCUUCUGUUUCGUAGUGCUGAAGUCUUAAACUUAAGUUACUAUAUUAGUGACCUUAUUUUAAUUUUAGAGAUACCUUCAGUAUGAAUACUGUGAGCUUACAUGGA	0.771 ratio

Block 2
Target: Ras GTPase-activating protein-binding protein 1, full length (G3BP1, Homo sapiens, UniProt Q13283)
UniProt Q13283, sequence (whole entry, looked up): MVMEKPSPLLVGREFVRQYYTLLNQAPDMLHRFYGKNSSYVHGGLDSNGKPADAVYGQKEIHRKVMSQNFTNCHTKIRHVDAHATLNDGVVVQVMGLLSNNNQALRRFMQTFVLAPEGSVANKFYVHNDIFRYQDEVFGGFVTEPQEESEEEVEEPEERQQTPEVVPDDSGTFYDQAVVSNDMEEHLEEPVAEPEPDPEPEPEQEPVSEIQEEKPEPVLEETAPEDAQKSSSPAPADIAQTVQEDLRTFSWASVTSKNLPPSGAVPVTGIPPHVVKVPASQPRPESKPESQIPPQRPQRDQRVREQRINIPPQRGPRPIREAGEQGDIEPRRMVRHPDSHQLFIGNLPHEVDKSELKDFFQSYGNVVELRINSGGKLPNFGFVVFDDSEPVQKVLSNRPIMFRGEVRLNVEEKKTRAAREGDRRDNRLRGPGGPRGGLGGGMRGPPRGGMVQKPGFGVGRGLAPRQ
Method: RNA Bind-n-Seq
Molecule type: RNA
Matrix: in vitro
Concentration: 200 nM
Notes: whole 134-nt RNA, ends assumed
Together with: 150 mM LiCl
Relative to: input library
Direction: higher = stronger binding
Library: 7-deaza-guanosine replaces G
All sequences stand within: GGGAGUUCUACAGUCCGACGAUC … UGGAAUUCUCGGGUGUCAAGG
Oligonucleotide	log2 enrichment
GUCCUGUGCUACACAUCGUAUGUACCGAAUCGGAAAAAAGGAAAAAAGGGAAAAAAGGAAAGUAUUAUGUUACGCCGUUCGGAUCUGCAC	-0.781
CAAGUCCUGUGCUACACAUCGUAUGUACCGAAUCGGGAAAGGGAGGGAAAAAGGGAAAGUAUUAUGUUACGCCGUUCGGAUCUGCACUUC	-0.767
UGGCCCUGGUGGCAUGCGGGGAGGAAGAGGUGGCCUCAUGGAUCGUGGUGGUCCCGGUGGAAUGUUCAGAGGUGUCCGUGGUGGAGACAG	-0.178
ACCAUGCAGGUGGGCAUCUAAAGGAAGUGGGGCAAGGGGGGGAUAGGGAGGGGGGUAACACUUUGGGAACAGGUGGUCCCAGGUCGUUUC	0.263
GUCCUGUGCUACACAUCGUAUGUACCGAAUCGGGGAAAAAGGGAAAAAGGGAAAAAGGAAAGUAUUAUGUUACGCCGUUCGGAUCUGCAC	-0.19
ACCAUGCAGGUGGGCAUCUUUGGGAAGUGGGGCAAGGGGGGGAUAGGGAGGGGGGUAACACUUUGGGAACAGGUGGUCCCAGGUCAAAUC	0.1
UCCUCAAGUCCUGUGCUACACAUCGUAUGUACCGAAUCGGGAGGAGGGAGGAAAGUAUUAUGUUACGCCGUUCGGAUCUGCACUUCCAGC	-1.26
CACAGACAACACGCACCCACACAGACACAGAGGGAAGGGGUUGGGAUGGGGACAGGGUGCACAGCAGGGAGGGGUAGGACCCCAGCCCCU	0.386

Block 3
Target: Interferon regulatory factor 3, full length, phosphomimetic (IRF3, Homo sapiens, UniProt Q14653, residues 1-427, S386D/S396D/S398D/S402D/T404D/S405D)
Method: protein-binding microarray
Molecule type: double-stranded DNA, one strand shown
Matrix: in vitro
Concentration: 2540 nM top
Notes: 60-bp whole probe
Together with: salmon DNA 0.4 mg/ml
Relative to: random background probes
Direction: higher = stronger binding
All sequences stand within: GCCTAGCAC … GTCTTGATTCGCTTGACGCTGCTG
Construct (chain): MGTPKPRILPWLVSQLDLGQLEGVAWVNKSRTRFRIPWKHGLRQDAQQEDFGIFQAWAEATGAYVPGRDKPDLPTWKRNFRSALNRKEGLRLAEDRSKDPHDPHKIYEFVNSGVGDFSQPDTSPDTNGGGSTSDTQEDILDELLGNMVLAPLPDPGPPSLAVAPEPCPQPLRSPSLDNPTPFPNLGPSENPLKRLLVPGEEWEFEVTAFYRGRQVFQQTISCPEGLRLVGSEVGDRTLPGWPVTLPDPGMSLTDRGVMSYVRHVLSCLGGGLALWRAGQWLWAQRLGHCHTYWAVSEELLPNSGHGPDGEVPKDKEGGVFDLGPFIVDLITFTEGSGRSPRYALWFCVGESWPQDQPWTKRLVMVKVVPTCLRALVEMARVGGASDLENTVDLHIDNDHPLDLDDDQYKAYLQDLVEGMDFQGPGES
Oligonucleotide	fitted relative affinity [z-score]
TTAGGTCTCATTCTCCTTTAGTGCTAG	2.87
GACGATCCCAGTCTCGAGACGTGCTAG	0.883
TTAGACATCAGTTTCGATTAGTGCTAG	3.29
AATTAGGTTTCACTTTCCAAAGTGCTA	8.13
GACCGTTTCCTTTCCCTGACGTGCTAG	8
TCACTCTTTGGCAAAGCCAGGTGCTAG	0.33
TCACTTCTGCATTACAGACTGTGCTAG	1.23
GACGGACTGGGAACTGGGGACGTGCTA	-0.82
CTGAGATGCATTCTGGGCCCGTGCTAG	-0.222
TTCATTATTGTTTCCTCTTTGTGCTAG	2.48
TTAGGTATCCTACTGCTTTCGTGCTAG	2.32
GACGGTTTAGGTATCGGGACGTGCTAG	1.48
GCCTTGTTCGTCGCTCCGCTGTGCTAG	-0.207
TTACGTCTCGGTATCGGTTAGTGCTAG	2.59
ACCCCAAAGAGGGGCAGTGTGTGCTAG	-0.033
TTAGGACTGCTTTTACTTTAGTGCTAG	0.316

Block 4
Target: Prothrombin, mature alpha-thrombin (F2, Homo sapiens, UniProt P00734)
Method: aptamer microarray, sandwich
Molecule type: DNA with 2'F-ANA
Matrix: in vitro
Concentration: 200 nM
Notes: whole 15-mer aptamer, many near background
Together with: Cy3 exosite-II aptamer, 400 nM
Direction: higher = stronger binding
Oligonucleotide: GGTTGGTGTGGTTGG
Modification	mean fluorescence intensity
2'F-ANA at 6 7 9 11 12 13 14 15	163 a.u.
2'F-ANA at 3 5 6 7 9 10 14 15	47.4 a.u.
2'F-ANA at 1 2 3 4 6 7 10 11 12 14 15	52.8 a.u.
2'F-ANA at 3 4 5 7 8 9 11 12 13 15	109 a.u.
2'F-ANA at 1 2 3 6 10 11 12	77.3 a.u.
2'F-ANA at 2 4 5 6 7 9 10 14	58.6 a.u.
2'F-ANA at 1 3 5 7 9 10 12 14 15	42.8 a.u.
2'F-ANA at 1 3 4 8 9 10 11 13 14	55.7 a.u.
2'F-ANA at 1 3 4 5 6 8 9 10 11 13 14	65.9 a.u.
2'F-ANA at 2 3 6 8 11 15	626 a.u.
2'F-ANA at 4 6 7 13 14	93.5 a.u.
2'F-ANA at 5 10 11 14 15	68.4 a.u.
2'F-ANA at 1 4 6 8 12 14	63.8 a.u.
2'F-ANA at 5 6 7 9 11 12	125 a.u.
2'F-ANA at 2 3 7 10 13	534 a.u.
2'F-ANA at 2 3 4 5 9 12 14	55.3 a.u.
2'F-ANA at 1 2 3 5 7 11 12 14 15	49.2 a.u.
2'F-ANA at 5 7 10 12 13 14 15	42.9 a.u.
2'F-ANA at 2 3 5 7 10 14	46 a.u.
2'F-ANA at 1 3 6 8 9 10 13	69.5 a.u.
2'F-ANA at 1 3 4 7 11 13 14 15	95.3 a.u.
2'F-ANA at 2 4 8 9 11 14	79.8 a.u.
